Experimental data from different studies.
Each numbered part is a random draw from the data of one study; scales do not carry over between parts.

Sample 1 — technique: RNA Bind-n-Seq; form: RNA; medium: in vitro; concentration: not given; relative to: input RNA pool; reading: higher = stronger binding
Target: RING finger protein unkempt homolog, zinc fingers 1-6, GST-SBP tag (UNK, Homo sapiens, UniProt Q9C0B0, residues 30-357)
Setting: RNA with constant flanks, human and mouse sites, ends assumed
All sequences stand within: GGGAGUUCUACAGUCCGACGAUC … CAACAGAGGAUUGAGCAUCA
Construct (chain): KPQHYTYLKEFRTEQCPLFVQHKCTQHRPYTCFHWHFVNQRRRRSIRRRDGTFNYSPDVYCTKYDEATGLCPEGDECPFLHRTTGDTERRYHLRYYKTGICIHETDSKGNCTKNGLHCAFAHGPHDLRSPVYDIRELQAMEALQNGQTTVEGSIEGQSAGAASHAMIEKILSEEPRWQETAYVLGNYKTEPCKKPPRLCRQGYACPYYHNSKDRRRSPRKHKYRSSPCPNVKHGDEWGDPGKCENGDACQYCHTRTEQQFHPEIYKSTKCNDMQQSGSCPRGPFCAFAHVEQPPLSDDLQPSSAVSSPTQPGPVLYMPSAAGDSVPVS
Sequence	bound/input enrichment [ratio]
CAUCUGUUUUUUAAAUUACAUUUUUGUUUAUGUUCUUGAGCUGAUGUAGUGGAACUUGCCUAGCACAUUCAGGUCCCAGCCAGUUGGCAGAGCAUGCUCUCAUCUCCUUAUUCCAUACCC	0.754
UUUCUAUUACAUCUGCUUUCAGAAGUCAGCAGCCUCCAUAGAGGGCUACUACUACCAUCGGAGCUCAGAAUGGUAUCAGUCCCUCAACCUGACCCAUGUUCCUGAACACAGUGCACCCAU	0.201
AUGACAAAACCAUCUGAGAAGGAAUCUGAACAGCCAGCAAAAGCCACUUUUGCCUUUGGAGCUCAAACUAGUACUACAGCUGAUCAAGGUGCAGCAAAGCCAGUUUUUAGUUUCUUGAAC	0.314
CUGAUUGUGGACAACAGCAUGGCUCCAGCCUCCGAUCUUGCACUGCCCUUGGAAACAAAAGUAGCAACAGUUCCAAUUAAAGACAAAGGAACUGUACAGACUGAAGAAAAACCACGUGAA	0.126
CAGUUUGGGAUCCCAUGAAGAGAGGGGUCCUUGGACAGCUCUUCUCCUCUCUUCAUCCCAUCUCUACCCCACCCCCUUGGCCCCCAGCCUCACUGCGGCUUAUACAGUACCCUAACCUGC	0.365
AUGAUCGACGUGCAGAACAGGGCCUACUUCCAGCAGUACGGCUGCACCUUCACCGCUGUCAUCCCCACCAACGUCUUCGGGCCCCACGACAACUUCAACAUCGAGGAUGGCCACGUGCUG	0.0862
ACUACUUGGAUGGAUACUAAAGGACCCAAGACAGCUGAAUCAGAAAGUAAAGAAAACAACAAUACAAGAAUUGACUCCAUGAUGAGUUCUGUGCAGAAAGAUAACUUUUACCCACAUAAG	0.233
UAACUAAGUGGGCUGUUCAGAAGCUUAGAGGUCAUUUUUUGUAAUUUUCUUUUUAAUUACUUUAGAGAGCUAGGGAUGCAAAUGUUUUCAGUUAGAAAGCCUUUAUUUACUUUUGGAAAU	2.47
UUCUUCUUCUUUGAUUCAGUUCAAGUCGUUUUCACAAUAUGUACAGCAGUUCUUGCAACAAUAGCUUUUGCUUUUCUUCUUCUCCCGAUGUGCCAGUAUUUAACAAGGCCCUGCUCACCU	2.09
UCUUUUUUUGCUGGGGAUAAAAACGAAGCACAUAAACUAAAGGAGGACUUCCGGCUACACUUUAGGAACAUUUCAAGAAUCAUGGACUGUGUUGGCUGCUUCAAGUGCCGCCUGUGGGGC	1.5
GGGAUCGCUCCGUCGCACCCACCAUGAUGGAAGACGACGGGCAGCCCCGGACUCUAUACGUAGGUAACCUUUCCAGAGAUGUGACAGAAGUCCUUAUACUUCAGUUGUUCAGUCAGAUUG	0.102

Sample 2 — technique: protein-binding microarray; form: hairpin DNA; medium: in vitro; concentration: not given; relative to: not given; reading: higher = stronger binding
Target: Cyclic AMP-responsive element-binding protein 1, full length (CREB1, Homo sapiens, UniProt P16220, residues 1-327)
UniProt P16220, sequence (whole entry, looked up): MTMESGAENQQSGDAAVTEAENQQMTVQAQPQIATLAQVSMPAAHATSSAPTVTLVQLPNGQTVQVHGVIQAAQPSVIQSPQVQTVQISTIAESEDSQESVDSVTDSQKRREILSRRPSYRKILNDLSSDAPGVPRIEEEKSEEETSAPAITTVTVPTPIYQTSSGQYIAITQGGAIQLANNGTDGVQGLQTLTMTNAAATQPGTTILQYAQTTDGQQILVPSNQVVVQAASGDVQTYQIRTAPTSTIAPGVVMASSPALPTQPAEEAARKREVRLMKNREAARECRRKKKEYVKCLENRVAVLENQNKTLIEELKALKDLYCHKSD
Setting: whole hairpin DNA, median over replicate spots
Sequence	median fluorescence
GAGGCCGGGTGACGTCAGCCTCCTGGCTGACGTCACCCGGCCTCACACTC	18700 a.u.
GAGGCCGGCTGACCGCAGCCTCCTGGCTGCGGTCAGCCGGCCTCACACTC (5mC at 30)	2730 a.u.
GAGGCCGGCTGCGGTCAGCCTCCTGGCTGACCGCAGCCGGCCTCACACTC (5mC at 12)	2670 a.u.
GAGGCCGCGTGACGTCAGCCTCCTGGCTGACGTCACGCGGCCTCACACTC (5mC at 36)	22200 a.u.
GAGGCCGGATGACGCCAGCCTCCTGGCTGGCGTCATCCGGCCTCACACTC	5100 a.u.
GAGGCCGGATGAGGTCAGCCTCCTGGCTGACCTCATCCGGCCTCACACTC (5mC at 32)	2670 a.u.
GAGGCCGGAGGACGTCAGCCTCCTGGCTGACGTCCTCCGGCCTCACACTC	4140 a.u.
GAGGCCGACGACCGCGTGCCTCCTGGCACGCGGTCGTCGGCCTCACACTC (5mC at 9 15 29 35)	2970 a.u.
GAGGCCGGATGACGTCAGCCTCCTGGCTGACGTCATCCGGCCTCACACTC (5mC at 31)	7920 a.u.
GAGGCCGACGCCGTCGTGCCTCCTGGCACGACGGCGTCGGCCTCACACTC (5mC at 9 15 29 35)	3010 a.u.
GAGGCCGACGACGTCTTGCCTCCTGGCAAGACGTCGTCGGCCTCACACTC (5mC at 9 15 35)	3100 a.u.
GAGGCCGGATGACGTGAGCCTCCTGGCTCACGTCATCCGGCCTCACACTC (5mC at 29)	10300 a.u.
GAGGCCGGATGGCGTCAGCCTCCTGGCTGACGCCATCCGGCCTCACACTC	3940 a.u.
GAGGCCGGATAACGTCAGCCTCCTGGCTGACGTTATCCGGCCTCACACTC	4330 a.u.
GAGGCCAGCTGACGTCAGCCTCCTGGCTGACGTCAGCTGGCCTCACACTC	12700 a.u.
GAGGCCGAATGACGTCAGCCTCCTGGCTGACGTCATTCGGCCTCACACTC	20700 a.u.
GAGGCCGGCGGACGTCAGCCTCCTGGCTGACGTCCGCCGGCCTCACACTC	4310 a.u.

Sample 3 — technique: universal PBM; form: double-stranded DNA, one strand shown; medium: in vitro; concentration: 600 nM; reading: higher = stronger binding
Target: Sal-like protein 4, full length isoform A (SALL4, Homo sapiens, UniProt Q9UJQ4, residues 1-1053)
UniProt Q9UJQ4, sequence (whole entry, looked up): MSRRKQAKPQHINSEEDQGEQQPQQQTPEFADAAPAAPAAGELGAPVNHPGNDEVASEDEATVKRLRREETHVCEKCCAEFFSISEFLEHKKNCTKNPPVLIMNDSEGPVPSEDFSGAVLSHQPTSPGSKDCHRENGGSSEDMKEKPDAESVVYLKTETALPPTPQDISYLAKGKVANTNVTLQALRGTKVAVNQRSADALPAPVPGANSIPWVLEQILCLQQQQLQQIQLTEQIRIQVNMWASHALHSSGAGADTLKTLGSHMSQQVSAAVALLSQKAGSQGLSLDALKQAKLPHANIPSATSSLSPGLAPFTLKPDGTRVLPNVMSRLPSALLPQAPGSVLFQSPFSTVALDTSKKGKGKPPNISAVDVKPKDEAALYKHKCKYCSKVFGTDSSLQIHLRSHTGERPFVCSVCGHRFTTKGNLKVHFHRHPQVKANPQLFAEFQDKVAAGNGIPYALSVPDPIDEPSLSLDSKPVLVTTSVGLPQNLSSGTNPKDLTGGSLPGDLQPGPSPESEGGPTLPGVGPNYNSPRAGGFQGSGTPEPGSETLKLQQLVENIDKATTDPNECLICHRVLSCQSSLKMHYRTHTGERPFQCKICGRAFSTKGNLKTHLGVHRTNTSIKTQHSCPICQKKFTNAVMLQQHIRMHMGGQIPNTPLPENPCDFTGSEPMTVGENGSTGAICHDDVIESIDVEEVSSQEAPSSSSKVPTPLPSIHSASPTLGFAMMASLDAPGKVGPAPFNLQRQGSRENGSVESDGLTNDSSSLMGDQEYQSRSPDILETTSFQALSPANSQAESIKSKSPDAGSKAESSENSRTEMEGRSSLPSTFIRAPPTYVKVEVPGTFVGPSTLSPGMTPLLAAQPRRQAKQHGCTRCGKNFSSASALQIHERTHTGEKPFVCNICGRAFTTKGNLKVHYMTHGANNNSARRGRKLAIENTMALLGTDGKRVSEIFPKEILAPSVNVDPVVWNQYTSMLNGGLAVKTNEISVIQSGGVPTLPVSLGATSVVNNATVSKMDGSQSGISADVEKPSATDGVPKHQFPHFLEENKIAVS
Setting: 8-mer, flanks averaged, mean of replicates
Sequence	E-score
CGAATACG	0.0113
ATGGGCAG	-0.178
GGATCCAC	-0.228
CCAACCGC	-0.258
CACGGAGC	-0.177
CATTGGCA	0.0229
AACGCGTA	0.0649
AAGTAAGT	0.136
ATGCCACC	-0.236
CCCTGGCC	-0.3
AGGTTCCG	-0.185
CTACAGAC	-0.0389
ACGGGATA	0.025
AAAGGTAT	0.149
CGTGGCAC	-0.201
ACAAAGTG	-0.0507
AAGATGCA	0.0921
AGGATCTG	-0.209
CTAGAGAA	0.0536
CAGCGAGA	-0.17
ACGGGACT	-0.24
ACACGCCT	0.0232
CTGGAATA	0.17
GAGTAGTA	0.121
GCTTGTGA	-0.122

Sample 4 — technique: RNA Bind-n-Seq; form: RNA; medium: in vitro; concentration: 365 nM; relative to: no-protein control; reading: higher = stronger binding
Target: RNA binding protein fox-1 homolog 2, RRM domain, GST-SBP tag (RBFOX2, Homo sapiens, UniProt O43251-10, residues 100-194)
Setting: natural RNA segment, single round, ends assumed
All sequences stand within: GGGAGUUCUACAGUCCGACGAUC … UGGAAUUCUCGGGUGCCAA
Construct (chain): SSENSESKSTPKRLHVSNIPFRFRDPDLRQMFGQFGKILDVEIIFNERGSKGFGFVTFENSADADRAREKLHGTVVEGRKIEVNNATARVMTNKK
Sequence	RBNS enrichment (R)
CUCCUGAGGUGCAUUUUCUCAUCAUCCUUGCUUUACCACAAUGAGCAAUGAGGUCGGGUUUUAUAUGCAACUUAUUGUAUCUGAAUUCCUGUAGCACACCUCAUAGGUAU	0.272
GGGAACCUUGGGUUAUCAUGUCACGAUGCCUGUGACCAUGAUUUCACGAAGUAGGUUUCCUCUGGCUCCCUACAGAGCAAUAUUCCAAAGGAACAUUUUAACUGUAAAGG	0.248
CCACUCCACCACUGUCCCUGGGGGCUUUUCAGCUCCCCCAGCCCUCAGCUUCUGGACCCCAGGCUUCACCCUCAGAUUGCUGCCAGUCUUCUGCAAGCCUUUCUAGCUUU	0.527
UGGUCACCUCAGUCCAGCUCUGGGGCCUCCAGGCCAUGUGGCUGUUCCCACGGCCCAGUCCUCGCUGCAGUAACCCCUGGGGGCUCUGACCACCUAUGGGGGCCGGGCAG	0.215
UCCCCGCAGAGUCUCCGGUGCAGACGCGCUGCGGGGAUGGGGAGCGGCGUGCCAAUCUGCGGGUCCCCUGCGGCCCCUGCUGCCGCUGCGCUGUCCCGGCCGCAAGAGCG	0.203
UAAUCAGUAUCAUUUCUACACCAAAAUAUUGUUUUUUUCCCUCACUAAAGACAAUAUAAAGAAAAAUAAUCUAAGAAGAUAAAGGGGCUUUCUGCUUAAAGAUAUGUAGA	0.452
CCGUGUAGACAUAGUGUACUCAGCAGAUGUAGAAUGUGAGCUCAUCAGCCUUGGCCUGGCUGAAACAGGCUUGCAUCCAACGUGAGACCGACAGACGGACAGACGGACAG	0.393
AAGUCCACUGUCAACAUUAUCAGCUCUCCUCAUUUCGAGCUAUCUGCUAGUCACAGCUGAAUAGCUUUGAGGAAGGAGGUGUGGCCCCCUCACACCCAGACACCCAGACA	0.218
GGAGGAAGACGACGAUCAGAAAGCUGUGAAGGAUGAACUGUAGUGCAGAAGCCAGAUCUGGGCGCCUGAACCCAAAACCUCGGUGGGCCACGCUCCCAGCAGCCCACAUC	0.337
UUUUAUUAUCAAAAUUAUAUUUCUGAUAAAAUAUUUUAAUUUUGAGGUAAUCCUUACAAAAUGAAGGUUUUCAUGCAACUAGAAAUAUAUUUUGAAAUAUAUUUGAUAUA	1.1
CUUACAUCAAAAUGAAAGUAAUUACAUUAAUAGAAAACUUCCAAGUGGAAUAUUGUUCACAGGCAGCUCUUUCUGACCCUGGCUCUUGAGUCACAUAAGGAAACCACCUU	0.626
CCCUGGUCUUAUAAGGGGAGGAGAGUUCAGCCCAGCACCAUAAUGCUUUAAAAAAAAAAAUUUUUUUUUUUUAACGAAUUGCUGUUCUGUCCAGAGGUUUUUAAAACUGG	0.386

Excerpt of the above (sample 3):
Sequence	E-score
CACGGAGC	-0.177
CATTGGCA	0.0229
AACGCGTA	0.0649
AAGTAAGT	0.136
ATGCCACC	-0.236
CCCTGGCC	-0.3
